Measured values pooled from the literature.
Protocols differ between the studies behind these lines. “And” joins repeats or separate records; there may be more than shown. ± gives the spread as reported.
Organism: Cryptosporidium parvum

Compound	test	system	conditions	scale	quantity	result
O=C(Cc1ccc(Cl)cc1)N1CCN(c2ccc3nncn3n2)CC1	high-content imaging	HCT-8			EC50	660 nM
O=C([O-])[C@@H](O)CO.[Na+]	image-based	HCT-8	1 mM, 24 h post-infection	baseline: PBS	relative parasite number	1.01 ± 0.104
O=C1NC(=O)/C(=C/c2ccc3ncnc(N4CCC(F)(F)CC4)c3n2)S1	parasite growth, immunofluorescence microscopy	HCT-8, Iowa	48 h post infection, compound added at 3 h		EC50	130 nM
CC(CN)C(=O)O (racemic)	image-based	HCT-8	1 mM, 24 h post-infection	baseline: PBS	relative parasite number	1.07 ± 0.08
O=C(Cc1cccc(C(F)(F)F)c1F)N1CCN(c2ccc3nncn3n2)CC1	high-content imaging	HCT-8			EC50	> 25000 nM
COc1ccc(NC(=O)N2CCCCN3[C@H](COCCC(=O)O)[C@H](c4ccc(C#Cc5ccccc5)cc4)[C@@H]3C2)cc1	parasite growth	Iowa (Sterling)			EC50	2 nM
O=C(O)[C@@H]1CCCCN1	image-based	HCT-8	1 mM, 24 h post-infection	baseline: PBS	relative parasite number	1.02 ± 0.095
Cc1cc(CC(=O)N2CCN(c3ccc4nncn4n3)CC2)ccc1F	high-content imaging	HCT-8			EC50	350 nM
CC(=O)O	image-based	HCT-8	1 mM, 24 h post-infection	baseline: PBS	relative parasite number	1.03 ± 0.121
COc1ccc(NC(=O)N2CCCCN3C[C@H](c4ccc(C#Cc5ccccc5)cc4)[C@@H]3C2)cc1	growth inhibition	WSU field isolate			EC50	96 nM
Clc1ccc(C(Cn2ccnc2)OCc2c(Cl)cccc2Cl)c(Cl)c1 (stereo not shown)		HCT-8		baseline: TC50 over EC50	selectivity index	10.9
CCCc1nn(C)c2c(=O)[nH]c(-c3cc(S(=O)(=O)N4CCN(C)CC4)ccc3OCC)nc12	parasite growth, immunofluorescence imaging	HCT-8, Iowa	222 nM		inhibition	-8.39% and -2.6%
COc1ccc(NC(=O)N2CCCCN3[C@H](CN(C)C)[C@H](c4ccc(C#Cc5ccccc5)cc4)[C@@H]3C2)cc1	intracellular parasite development	HCT-8	EC90		EdU incorporation	inhibited
COc1ccc(CNc2nc(-c3ccc(C(=O)O)cc3)nc3c2c2ccccc2n3C)cc1Cl	parasite growth, immunofluorescence microscopy	HCT-8, Iowa	48 h post infection, compound added at 3 h		EC50	870 nM
O=C(Cc1ccccc1)N1CCN(c2ccc3nncn3n2)CC1	high-content imaging	HCT-8			EC50	22000 nM
CC(C)C(=O)C(=O)[O-].[Na+]	image-based	HCT-8	1 mM, 24 h post-infection	baseline: PBS	relative parasite number	0.965 ± 0.163
COc1ccc(NC(=O)N2CCCCN3[C@H](CN(C)S(C)(=O)=O)[C@H](c4ccc(C#Cc5ccccc5)cc4)[C@@H]3C2)cc1	growth inhibition	WSU field isolate			EC50	6 nM
O=CO	image-based	HCT-8	1 mM, 24 h post-infection	baseline: PBS	relative parasite number	1.03 ± 0.108
O=C(Cc1ccc(F)cc1)N1CCN(c2ccc3nncn3n2)CC1	high-content imaging	HCT-8			EC50	860 nM

Repeated from above:
Compound	test	system	conditions	scale	quantity	result
O=C(Cc1ccc(F)cc1)N1CCN(c2ccc3nncn3n2)CC1	high-content imaging	HCT-8			EC50	860 nM
